Assay results from different studies.
Numbered parts are unrelated; each lists some results of a single study. Positions count from the first letter of the parent shown.

Block 1
Target: ABI1, truncated, D143A, DHFR fusion (Arabidopsis thaliana)
Method: DHFR PCA, deep sequencing
Medium: yeast
Notes: methotrexate growth selection, single substitutions
Together with: (+)-ABA 0.11 µM
Reference: wild-type fitted maximum
Reading: higher = stronger binding
Starting sequence: PYL1, truncated, DHFR fusion (Arabidopsis thaliana); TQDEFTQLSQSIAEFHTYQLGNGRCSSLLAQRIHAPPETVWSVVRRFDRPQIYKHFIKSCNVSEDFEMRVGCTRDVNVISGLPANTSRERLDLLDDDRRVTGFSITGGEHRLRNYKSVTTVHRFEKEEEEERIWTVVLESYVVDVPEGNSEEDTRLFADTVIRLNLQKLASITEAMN
`F124I` — result for “relative binding score”: 63.2%.
`E127H` — result for “relative binding score”: 43.1%.
`F56W`: “relative binding score” 3.68%.
`N165V` — result for “relative binding score”: 3.1%.
`Q19D` — result for “relative binding score”: 50.2%.
Under “relative binding score”, `L82K` is recorded as 3.56%.
`D65H` — result for “relative binding score”: 20%.
`N77K` — result for “relative binding score”: 57.9%.
For `V62A`, “relative binding score” read 3.18%.
For `A35M`, “relative binding score” read -2.66%.
`P50Q`: “relative binding score” -10.3%.
Under “relative binding score”, `K116Y` is recorded as -5.12%.
Under “relative binding score”, `I12V` is recorded as 12.5%.
For `L138I`, “relative binding score” read 1.75%.

Block 2
Target: Ras GTPase-activating protein-binding protein 1, full length (G3BP1, Homo sapiens, UniProt Q13283)
Sequence of UniProt Q13283 (whole entry, looked up): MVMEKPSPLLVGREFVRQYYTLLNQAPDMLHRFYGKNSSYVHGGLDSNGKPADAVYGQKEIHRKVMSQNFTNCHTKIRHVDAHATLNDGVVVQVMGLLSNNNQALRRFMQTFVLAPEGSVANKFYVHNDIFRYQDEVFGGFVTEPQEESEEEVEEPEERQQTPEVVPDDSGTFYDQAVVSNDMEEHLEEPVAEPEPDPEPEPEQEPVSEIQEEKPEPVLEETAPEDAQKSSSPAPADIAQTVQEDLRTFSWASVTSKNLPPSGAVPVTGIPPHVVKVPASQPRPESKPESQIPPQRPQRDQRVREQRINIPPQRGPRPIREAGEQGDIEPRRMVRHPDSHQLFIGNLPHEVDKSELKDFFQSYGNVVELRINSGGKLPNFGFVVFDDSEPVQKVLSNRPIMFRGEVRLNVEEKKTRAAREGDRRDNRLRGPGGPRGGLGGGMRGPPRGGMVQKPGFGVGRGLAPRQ
Method: RNA Bind-n-Seq
Molecule type: RNA
Medium: in vitro
Concentration: 200 nM
Notes: whole 134-nt RNA, ends assumed
Together with: 150 mM KCl
Reference: input library
Reading: higher = stronger binding
The log2 enrichment of `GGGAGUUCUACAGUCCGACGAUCUCAAGUCCUGUGCUACACAUCGUAUGUACCGAAUCGGGUUGGUUGGGGUUGGGGAAAGUAUUAUGUUACGCCGUUCGGAUCUGCACUUCCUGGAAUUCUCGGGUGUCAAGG` is reported as 0.631.
For `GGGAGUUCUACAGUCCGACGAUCUAGUCACCUACUGCCACCUUCGAAAAACACGGAGAGCACCUACCCAGAGGAGAAGGUAGAUUUGGAGUAAGCCGCCGUCGACAUAAUUCCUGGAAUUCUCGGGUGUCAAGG`, the log2 enrichment was 0.378.
The log2 enrichment of `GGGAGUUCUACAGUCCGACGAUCCCUGUGCUACACAUCGUAUGUACCGAAUCGGGGAAAGGGGUUUUUGGGGAAAAAAAGGGGAAAGUAUUAUGUUACGCCGUUCGGAUCUGCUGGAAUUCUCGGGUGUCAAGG` is reported as 0.094.
`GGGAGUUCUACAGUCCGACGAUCACCAUGCAGGUGGGCAUCUUUGGGAAAUGGGGCAAGGGGGGGAUAGGGAGGGGGGUAACACUUUGGGAACAGGUGGUCCCAGGUCGUUUCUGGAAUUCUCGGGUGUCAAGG` has a log2 enrichment of 1.53.
`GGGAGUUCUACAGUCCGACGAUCAGUCCUGUGCUACACAUCGUAUGUACCGAAUCGGGGAAAGGGGAGGGGUUUUUGGGGAAAGUAUUAUGUUACGCCGUUCGGAUCUGCACUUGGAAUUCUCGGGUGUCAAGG` has a log2 enrichment of 0.358.

Block 3
Target: CCNA1, cyclin fold, Cln2 fusion (human)
Method: yeast growth competition, sequencing
Medium: yeast
Notes: weak parent motif
Reference: not given
Reading: higher = stronger binding
Starting sequence: CDKN1A docking peptide (human); SKACRRLFGPVDS
Under “normalised enrichment score”, `SKACRRIFGPVDS [L7I]` is recorded as 0.137.
`SKACRRLFWPVDS [G9W]` — result for “normalised enrichment score”: 0.627.
`SKACRRLDGPVDS [F8D]`: “normalised enrichment score” 0.201.
`SKAGRRLFGPVDS [C4G]` — result for “normalised enrichment score”: 0.135.
`SKACRRLFGTVDS [P10T]`: “normalised enrichment score” 0.425.
`SKACCRLFGPVDS [R5C]` — result for “normalised enrichment score”: -0.0514.
`SKACRRYFGPVDS [L7Y]`: “normalised enrichment score” 0.374.
`SKKCRRLFGPVDS [A3K]` — result for “normalised enrichment score”: 0.016.
`SKACRRLPGPVDS [F8P]` — result for “normalised enrichment score”: -0.157.
For `SKLCRRLFGPVDS [A3L]`, “normalised enrichment score” read 0.0699.

Block 4
Target: RNA binding protein fox-1 homolog 2, RRM domain, GST-SBP tag (RBFOX2, Homo sapiens, UniProt O43251-10, residues 100-194)
Method: RNA Bind-n-Seq
Molecule type: RNA
Medium: in vitro
Concentration: 365 nM
Notes: natural RNA segment, single round, ends assumed
Reference: no-protein control
Reading: higher = stronger binding
Residues (chain): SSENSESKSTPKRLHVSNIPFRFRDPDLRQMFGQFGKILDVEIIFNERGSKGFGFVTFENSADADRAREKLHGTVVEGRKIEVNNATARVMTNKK
`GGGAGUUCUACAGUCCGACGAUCUGAGAGGUAACAAAUAGGGAGAUACGGGUUGAGACUGCAUAAAAAACGUACUGCUGGUUGAAUAUCUGAGGUAAAUGAUGUUUAAUCAAGAUGCUACUUGUAUCUUUGUCUGGAAUUCUCGGGUGCCAA` — result for “RBNS enrichment (R)”: 0.6.
`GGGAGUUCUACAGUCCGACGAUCACGAGGGGCCUGCCCCCCGCCCUACCGGCUUUUGGAUUCUGGGAGGGGAACUCUGCCUCCCUGCAAAUCUUGCAGCCCCUCCUGCCCAGGGCACCCCUCAAGGACUGCCCUGGAAUUCUCGGGUGCCAA`: “RBNS enrichment (R)” 0.16.
Under “RBNS enrichment (R)”, `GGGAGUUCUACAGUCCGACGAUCACUGAAGGACAAUUGACUUUUAUUUUUGUAUUUAAUUGACAUGAAUGUAAAGGGGACAGCUCAGGGUUGUUUUGGAGCCUGUUUGACUUUGUAAUCUCUGCCUGUGAUUUUGGAAUUCUCGGGUGCCAA` is recorded as 1.59.
For `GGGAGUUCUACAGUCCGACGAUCACUGUGAGGGUGGGCCCUGAGGAGACCUGUGGGCCACCUAUUGUCUAAUAAAGUGGGCAGUUGCCCCAUCUGGUGGCUUUCCUUAGGGGUGAGGGGUCUUGUUGGGUCCCUGGAAUUCUCGGGUGCCAA`, “RBNS enrichment (R)” read 0.484.
`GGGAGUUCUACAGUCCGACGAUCAUUUUUUUUUCUCUAAGAAGAGGCUUUGGAAUGAGUUCCAAUUUGUGAUGUUAAUACAGGCUUCUUGUUUUAGGAAGCAUCACCUAUACUCUGAAGCCUUUAAACUCUGAUGGAAUUCUCGGGUGCCAA`: “RBNS enrichment (R)” 1.09.
`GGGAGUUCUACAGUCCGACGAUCGGAUGUAUUCCAGAGCCUGAUGUUUUUAUUCAAACCACAGAAAAGUUUUCUUUAAGUAGCCUGUGCAGUCAUGCAUGUGCCUGAGUUGUCUGGAGCAGAGGCAAACAUCUUGGAAUUCUCGGGUGCCAA` — result for “RBNS enrichment (R)”: 1.65.
`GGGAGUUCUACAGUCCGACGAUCAUCCCAAAGAGGCCCUGUGUCUACCAGGAGCUUCUUUUUCCAAAUGUAAUGGAUUAUGUGGAAUUGUAGUGCCAUCGGUUUUUACUUAGAGCCCUUGACGUGCUUGGACCUGGAAUUCUCGGGUGCCAA`: “RBNS enrichment (R)” 0.315.
`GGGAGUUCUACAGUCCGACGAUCUGGCCCUGCCAGCAGGCGGAGGAUGAGGCCCUCCUUCUCUGAGGACGGGUCUGCUGGAGAGAGAAGAAACAGGUGGCUGCCUUCCACCUCACUCCUCACUUGAGCUGCCUUGGAAUUCUCGGGUGCCAA`: “RBNS enrichment (R)” 0.198.

Repeated from above (block 1):
`E127H` — result for “relative binding score”: 43.1%.
`F56W`: “relative binding score” 3.68%.
`N165V` — result for “relative binding score”: 3.1%.
